Results collected from several papers.
Each numbered part is a random draw from the data of one study; scales do not carry over between parts. Changes are numbered by the printed parent chain.

Study 1
Target: Histone acetyltransferase KAT6A, winged helix 2, GST fusion (KAT6A, Homo sapiens, UniProt Q92794, residues 85-181)
Technique: protein binding microarray
Molecule type: double-stranded DNA, one strand shown
Medium: in vitro
Tested at: not given
Setting: 8-mer, flanks averaged, mean of 2 arrays, mostly near background
Reference: not given
Reading: higher = stronger binding
Target sequence (chain): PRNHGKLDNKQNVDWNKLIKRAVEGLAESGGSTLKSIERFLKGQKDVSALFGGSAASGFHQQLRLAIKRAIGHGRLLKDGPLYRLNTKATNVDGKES
Strand | E-score
CCTGGGCC | 0.0152
CCTGTTCG | 0.0648
AAACTACT | -0.0182
GGTCACCA | 0.0813
ATAATCAC | -0.00954
GAGCCAGA | -0.0554
CTTGAGCA | 0.0479
AACACATT | -0.0538

Study 2
Target: Interferon regulatory factor 5, full length, phosphomimetic (IRF5, Homo sapiens, UniProt Q13568-2, residues 1-514, S451D/S453D/S456D/S462D)
Technique: protein-binding microarray
Molecule type: double-stranded DNA, one strand shown
Medium: in vitro
Tested at: 940 nM top
Setting: 60-bp whole probe
Together with: salmon DNA 0.4 mg/ml
Reference: random background probes
Reading: higher = stronger binding
Shared flanks, not repeated: GCCTAGCAC … GTCTTGATTCGCTTGACGCTGCTG
Strand | fitted relative affinity
GACGGATTCCTTATCCTGACGTGCTAG | -0.194 z-score
GACGCACTGGGGTATCGAGACGTGCTA | 1.05 z-score
TTAGGTTTCGACACTGGGTTGGTGCTA | 8.41 z-score
AGATGCCAAGAGGCATGATGGTGCTAG | -0.625 z-score
TTAGGACTGGGATATCGGTTAGTGCTA | -0.194 z-score
TTAGGTCTCGTTTTCGGTTAGTGCTAG | 3.64 z-score
TTAGGTCTGGACTTTCGGTTAGTGCTA | 2.52 z-score
TGAAATTTTAATAACACAGAGTGCTAG | 0.0112 z-score
TTAGGTATCGGTCTCGGTGAGTGCTAG | 9.52 z-score
GTGTTTTTCTCCTATTTAAGAGTGCTA | 1.69 z-score
TTAGAACTGAGACTCGATTAGTGCTAG | 0.149 z-score

Study 3
Target: CCND2, cyclin fold, Cln2 fusion (human)
Technique: yeast growth competition, sequencing
Medium: yeast
Setting: weak parent motif
Reference: not given
Reading: higher = stronger binding
Starting sequence: SLBP docking peptide (human); ARYKRKLLINDFG
Variant | normalised enrichment score
I9P | 0.382
I9M | 0.237
R2E | 0.357
L8M | 0.634

Single results of other studies
Substance | target | assay | system | setting | scale | measurement | result
PhoQ, residues 284 288 289 292 302 303 SSTLLI | PhoP, residues 12 14 15 18 19 LWHSL (Escherichia coli, UniProt P23836) | Sort-seq, refers to: YFP reporter | E. coli | PhoQ-PhoP variant library, together with: 10 µM Mg2+ | reference: high Mg2+ state, higher = stronger signaling | fold induction | 7.64

For quick reference, copied from above (study 2):
Strand | fitted relative affinity
TTAGGTCTGGACTTTCGGTTAGTGCTA | 2.52 z-score
GTGTTTTTCTCCTATTTAAGAGTGCTA | 1.69 z-score
TTAGGACTGGGATATCGGTTAGTGCTA | -0.194 z-score
